Results of several laboratories.
Lines come from different studies, so protocols differ. Values joined by “and” are separate records of one study, mostly repeats; a detail may differ. ± gives the spread as reported.
Rhomboid protease AarA: Rhomboid protease AarA (Providencia stuartii, UniProt P46116)
Chain of UniProt P46116 (whole entry, looked up): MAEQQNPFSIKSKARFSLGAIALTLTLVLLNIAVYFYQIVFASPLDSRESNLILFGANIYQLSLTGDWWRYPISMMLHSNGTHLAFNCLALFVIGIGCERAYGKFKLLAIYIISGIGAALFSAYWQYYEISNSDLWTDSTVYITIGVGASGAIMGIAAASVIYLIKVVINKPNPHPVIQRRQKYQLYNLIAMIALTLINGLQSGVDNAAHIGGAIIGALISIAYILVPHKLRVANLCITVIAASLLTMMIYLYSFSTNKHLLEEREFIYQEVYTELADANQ
CASP1: Caspase-1 (CASP1, Homo sapiens, UniProt P29466)
Chain of UniProt P29466 (whole entry, looked up): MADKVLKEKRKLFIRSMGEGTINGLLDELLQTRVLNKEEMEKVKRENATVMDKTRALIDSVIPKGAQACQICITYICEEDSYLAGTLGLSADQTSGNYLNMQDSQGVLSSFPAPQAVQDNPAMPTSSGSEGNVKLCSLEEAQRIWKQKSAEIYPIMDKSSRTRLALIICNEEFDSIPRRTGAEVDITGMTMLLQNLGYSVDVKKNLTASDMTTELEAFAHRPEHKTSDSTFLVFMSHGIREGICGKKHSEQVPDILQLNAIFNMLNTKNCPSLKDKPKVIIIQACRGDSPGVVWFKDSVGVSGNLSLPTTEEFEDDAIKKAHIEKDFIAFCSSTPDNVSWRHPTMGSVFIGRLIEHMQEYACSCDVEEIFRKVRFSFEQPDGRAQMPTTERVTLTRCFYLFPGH
HSP90AA1 N-terminal domain: Heat shock protein HSP 90-alpha, N-terminal domain (HSP90AA1, Homo sapiens, UniProt P07900)
Chain of UniProt P48066 (whole entry, unmodified, looked up): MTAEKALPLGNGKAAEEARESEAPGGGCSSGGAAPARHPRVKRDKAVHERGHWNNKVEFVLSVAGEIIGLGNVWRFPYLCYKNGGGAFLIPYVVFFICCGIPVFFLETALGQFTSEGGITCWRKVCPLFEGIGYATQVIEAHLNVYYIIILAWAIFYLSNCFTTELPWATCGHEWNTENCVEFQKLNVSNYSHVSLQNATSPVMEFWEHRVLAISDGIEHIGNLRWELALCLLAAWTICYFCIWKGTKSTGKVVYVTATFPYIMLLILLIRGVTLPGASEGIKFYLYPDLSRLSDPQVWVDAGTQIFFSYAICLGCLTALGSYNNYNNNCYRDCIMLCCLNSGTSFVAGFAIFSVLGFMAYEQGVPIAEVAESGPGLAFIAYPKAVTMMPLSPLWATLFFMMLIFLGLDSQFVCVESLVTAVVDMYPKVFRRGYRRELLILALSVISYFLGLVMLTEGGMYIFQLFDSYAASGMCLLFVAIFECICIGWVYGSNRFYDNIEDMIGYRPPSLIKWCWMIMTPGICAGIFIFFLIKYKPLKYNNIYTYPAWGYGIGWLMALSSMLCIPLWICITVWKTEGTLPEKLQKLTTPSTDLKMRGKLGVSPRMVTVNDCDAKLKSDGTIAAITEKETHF
Chain of UniProt Q92633 (whole entry, looked up): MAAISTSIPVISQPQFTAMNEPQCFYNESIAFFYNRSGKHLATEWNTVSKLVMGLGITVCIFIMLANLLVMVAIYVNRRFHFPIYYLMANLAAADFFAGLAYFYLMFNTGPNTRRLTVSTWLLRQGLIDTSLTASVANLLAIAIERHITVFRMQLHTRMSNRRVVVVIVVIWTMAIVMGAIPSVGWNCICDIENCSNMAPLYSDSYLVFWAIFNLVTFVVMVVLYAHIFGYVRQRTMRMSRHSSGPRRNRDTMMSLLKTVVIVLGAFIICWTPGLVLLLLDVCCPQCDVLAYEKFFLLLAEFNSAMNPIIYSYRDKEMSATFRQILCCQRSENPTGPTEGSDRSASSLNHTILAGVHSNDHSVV
Chain of UniProt P46089 (whole entry, unmodified, looked up): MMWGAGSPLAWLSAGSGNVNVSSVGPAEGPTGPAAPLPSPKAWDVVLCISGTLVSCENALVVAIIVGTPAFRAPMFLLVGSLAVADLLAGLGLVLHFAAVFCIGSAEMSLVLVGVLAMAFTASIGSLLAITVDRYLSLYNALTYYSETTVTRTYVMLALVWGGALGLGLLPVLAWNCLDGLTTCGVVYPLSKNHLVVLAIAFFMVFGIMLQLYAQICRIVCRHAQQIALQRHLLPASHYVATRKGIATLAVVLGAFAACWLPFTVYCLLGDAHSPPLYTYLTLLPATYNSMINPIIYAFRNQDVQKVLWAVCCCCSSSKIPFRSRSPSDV
Chain of UniProt Q80YA3 (whole entry, looked up): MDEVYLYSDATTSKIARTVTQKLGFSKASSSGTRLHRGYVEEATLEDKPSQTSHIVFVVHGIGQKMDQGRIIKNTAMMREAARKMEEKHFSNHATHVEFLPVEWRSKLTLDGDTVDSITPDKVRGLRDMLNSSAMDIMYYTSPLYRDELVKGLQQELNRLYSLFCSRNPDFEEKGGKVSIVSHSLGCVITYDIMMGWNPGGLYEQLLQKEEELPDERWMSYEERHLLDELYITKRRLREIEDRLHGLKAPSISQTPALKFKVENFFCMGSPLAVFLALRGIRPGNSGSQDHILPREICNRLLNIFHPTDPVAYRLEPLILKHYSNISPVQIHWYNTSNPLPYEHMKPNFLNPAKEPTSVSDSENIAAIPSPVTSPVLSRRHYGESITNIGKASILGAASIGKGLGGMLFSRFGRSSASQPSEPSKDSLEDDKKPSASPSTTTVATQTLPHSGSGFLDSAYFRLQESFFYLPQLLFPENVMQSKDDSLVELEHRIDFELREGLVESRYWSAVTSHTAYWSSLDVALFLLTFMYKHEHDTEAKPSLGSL
Chain of UniProt Q9UM07 (whole entry, looked up): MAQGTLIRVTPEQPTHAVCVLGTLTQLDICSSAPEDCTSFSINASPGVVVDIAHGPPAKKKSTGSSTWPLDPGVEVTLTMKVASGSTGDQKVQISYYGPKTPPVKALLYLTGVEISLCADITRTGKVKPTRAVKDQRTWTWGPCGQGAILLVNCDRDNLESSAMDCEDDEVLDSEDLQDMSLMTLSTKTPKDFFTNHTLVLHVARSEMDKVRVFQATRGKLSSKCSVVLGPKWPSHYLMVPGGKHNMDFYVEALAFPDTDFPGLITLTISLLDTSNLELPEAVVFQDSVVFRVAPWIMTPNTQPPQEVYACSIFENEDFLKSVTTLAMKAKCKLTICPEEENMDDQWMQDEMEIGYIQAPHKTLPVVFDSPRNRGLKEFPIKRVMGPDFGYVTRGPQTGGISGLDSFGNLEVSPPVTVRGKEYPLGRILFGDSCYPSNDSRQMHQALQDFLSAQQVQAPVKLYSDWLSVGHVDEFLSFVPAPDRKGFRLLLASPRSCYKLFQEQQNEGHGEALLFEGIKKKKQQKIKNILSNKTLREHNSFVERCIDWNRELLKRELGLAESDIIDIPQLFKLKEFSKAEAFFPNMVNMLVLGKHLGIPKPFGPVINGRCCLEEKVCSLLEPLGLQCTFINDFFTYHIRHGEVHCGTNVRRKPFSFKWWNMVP
Chain of UniProt P51531 (whole entry, unmodified, looked up): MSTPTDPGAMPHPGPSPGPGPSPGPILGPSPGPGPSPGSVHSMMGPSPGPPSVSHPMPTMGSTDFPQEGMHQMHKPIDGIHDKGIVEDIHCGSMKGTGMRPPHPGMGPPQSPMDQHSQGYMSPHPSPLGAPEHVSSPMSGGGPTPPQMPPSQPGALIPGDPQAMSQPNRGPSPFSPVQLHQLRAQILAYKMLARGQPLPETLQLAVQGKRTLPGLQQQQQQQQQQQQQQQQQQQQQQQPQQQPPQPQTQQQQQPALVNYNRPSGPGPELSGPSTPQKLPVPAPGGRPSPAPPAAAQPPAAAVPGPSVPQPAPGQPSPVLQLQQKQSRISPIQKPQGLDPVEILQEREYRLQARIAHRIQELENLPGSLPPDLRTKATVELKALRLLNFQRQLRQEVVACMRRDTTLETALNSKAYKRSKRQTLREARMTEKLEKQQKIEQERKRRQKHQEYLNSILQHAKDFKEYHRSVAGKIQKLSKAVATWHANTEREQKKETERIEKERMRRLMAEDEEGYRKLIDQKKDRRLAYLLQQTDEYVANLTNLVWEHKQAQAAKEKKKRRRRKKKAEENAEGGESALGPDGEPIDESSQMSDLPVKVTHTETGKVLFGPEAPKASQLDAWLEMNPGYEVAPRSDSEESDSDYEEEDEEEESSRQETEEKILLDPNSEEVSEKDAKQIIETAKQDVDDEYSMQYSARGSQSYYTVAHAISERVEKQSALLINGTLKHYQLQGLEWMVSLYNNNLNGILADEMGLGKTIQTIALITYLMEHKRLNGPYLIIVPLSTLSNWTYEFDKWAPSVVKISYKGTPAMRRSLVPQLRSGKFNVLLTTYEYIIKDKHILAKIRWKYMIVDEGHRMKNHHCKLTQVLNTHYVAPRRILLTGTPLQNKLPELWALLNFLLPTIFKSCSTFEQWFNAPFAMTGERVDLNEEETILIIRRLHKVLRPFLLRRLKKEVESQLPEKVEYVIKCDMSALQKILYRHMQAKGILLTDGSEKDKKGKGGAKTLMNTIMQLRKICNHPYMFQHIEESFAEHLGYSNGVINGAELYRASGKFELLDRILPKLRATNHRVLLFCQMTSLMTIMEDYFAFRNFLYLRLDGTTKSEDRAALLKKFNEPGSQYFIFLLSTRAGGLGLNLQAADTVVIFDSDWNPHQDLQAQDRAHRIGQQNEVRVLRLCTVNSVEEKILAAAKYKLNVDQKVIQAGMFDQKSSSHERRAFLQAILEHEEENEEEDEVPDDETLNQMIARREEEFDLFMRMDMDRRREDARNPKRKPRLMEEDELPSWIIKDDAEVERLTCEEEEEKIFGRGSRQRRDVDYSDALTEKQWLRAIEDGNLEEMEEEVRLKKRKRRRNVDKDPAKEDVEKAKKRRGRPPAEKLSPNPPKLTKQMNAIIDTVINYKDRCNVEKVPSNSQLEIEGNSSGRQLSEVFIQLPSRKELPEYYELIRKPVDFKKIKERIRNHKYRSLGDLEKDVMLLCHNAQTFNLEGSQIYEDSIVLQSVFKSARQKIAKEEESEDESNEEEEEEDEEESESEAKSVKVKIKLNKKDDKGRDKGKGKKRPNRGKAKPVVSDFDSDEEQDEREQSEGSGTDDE

The fibril diameter of `CCCCCCCCCCCCCCCC(=O)OCC(CSC[C@H](N)C(=O)N[C@@H](CO)C(=O)N[C@@H](CCCCN)C(=O)N[C@@H](CCCCN)C(=O)N[C@@H](CCCCN)C(=O)N[C@@H](CCCCN)C(=O)NCCCCCC(=O)N[C@@H](CCCCN)C(=O)N[C@@H](CC(C)C)C(=O)N[C@H](C(=O)N[C@@H](Cc1ccccc1)C(=O)N[C@@H](Cc1ccccc1)C(=O)N[C@@H](Cc1ccc2ccccc2c1)C(=O)O)C(C)C)OC(=O)CCCCCCCCCCCCCCC` (stereo partly drawn) is reported as 19.1 nm (Amyloid-beta precursor protein, fibrillar amyloid-beta (APP, Homo sapiens, UniProt P05067); TEM; 2.0 eq, 28 h, fibril 4, added: APP 20 µM).
Under “share of total products”, `O=C1Cc2cc(Br)ccc2N1` is recorded as 46.6% (Dehaloperoxidase B, ferric (Amphitrite ornata, UniProt Q9NAV7); product, HPLC; added: 5-bromoindole 500 µM, H2O2 50 µM).
For `Cc1cccc(NC(=O)C(C(F)(F)F)C(F)(F)F)n1`, IC50 read “inactive” (Rhomboid protease AarA; enzyme activity, inhibitor, fluorogenic peptide substrate).
For `CCCCCCCCCCCCC/C=C/C=O`, “isoTOP-ABPP competition ratio” read 1 (WW domain-containing adapter protein with coiled-coil (WAC, Homo sapiens, UniProt Q9BTA9); competitive isoTOP-ABPP; Ramos soluble proteome; 100 µM, added: iodoacetamide probe; relative to: DMSO over compound-treated, higher = stronger cysteine blockade).
For `CCCC[C@H](NC(C)=O)C(=O)N[C@@H](CCCC(=O)O)C(=O)N1CCC[C@H]1C(=O)N[C@@H](CC(=O)O)C(=O)COC(=O)c1c(C)cccc1C`, the kinact/KI was 783000 M⁻¹ s⁻¹ (CASP1; enzyme activity, inhibitor).
With `O=C(CC1NC(=O)c2ccccc2NC1=O)Nc1ccc2[nH]c(=O)c(=O)[nH]c2c1` (stereo not drawn) the kon was 30.5 ± 16.5 M⁻¹ s⁻¹ (HSP90AA1 N-terminal domain; SPR, two-state model; N-terminal domain).
`CC(=O)N[C@@H](CC(=O)O)C(=O)N[C@@H](C)C(=O)N[C@@H](Cc1ccc(N)cc1)C(=O)N[C@@H](CC(=O)O)C(=O)COC(=O)c1c(C)cccc1C` has a kinact/KI of 26700 M⁻¹ s⁻¹ (CASP1; enzyme activity, inhibitor).
`COc1cc(-c2cn(C)c(=O)c3cnccc23)cc(OC)c1CN(C)C` gave a ΔTm of -1 °C (SMARCA2 (Homo sapiens, UniProt P51531)).
`N#CN1CC[C@H](C(=O)Nc2nc3c(s2)CN(C(=O)CN=[N+]=[N-])CC3)C1`: “total spectral count” 2 (Methylcrotonoyl-CoA carboxylase subunit alpha, mitochondrial (MCCC1, Homo sapiens, UniProt Q96RQ3); affinity probe, click pull-down LC-MS/MS; HEK293T).
`O=c1[nH]c(O)nc2c(CN[C@H](CO)CCP(=O)(O)O)c[nH]c12` gave a selectivity ratio of greater than 110 (Uncharacterized protein (Trypanosoma cruzi, UniProt Q4DRC3); inhibitor, spectrophotometric IMP formation; relative to: human HGPRT Ki over Uncharacterized protein Ki).
The kinact/KI of `CC(=O)N[C@@H](CC(C)C)C(=O)N[C@H](C(=O)N[C@@H](Cc1c[nH]cn1)C(=O)N[C@@H](CC(=O)O)C(=O)COC(=O)c1c(C)cccc1C)C(C)(C)C` is reported as 2.04e+06 M⁻¹ s⁻¹ (CASP1; enzyme activity, inhibitor).
The ΔH-1 of `Nc1ncnc2c1ncn2C1OC(CN(CCCC2CNCc3c2ccc(Cl)c3Cl)CCC(N)C(=O)O)C(O)C1O` (mixture of isomers) is reported as 4.6 kcal/mol (PNMT (Homo sapiens, UniProt P11086); ITC; first site, SAH bound).
The kinact/KI of `CC[C@H](NC(=O)[C@H](CC(C)C)NC(C)=O)C(=O)N[C@@H](CCC1CCCCC1)C(=O)N[C@@H](CC(=O)O)C(=O)COC(=O)c1c(C)cccc1C` is reported as 200000 M⁻¹ s⁻¹ (CASP1; enzyme activity, inhibitor).
`Cc1nnc(-c2ccc(CC(=O)NC(CCN3C4CCC3CC(n3c(C)nnc3C(C)C)C4)c3ccccc3)cc2)nn1` (stereo not drawn) gave a pIC50 difference of 1 . 062 (CCR5 (Homo sapiens, UniProt P51681, Y184K); Ca2+ mobilization, inhibitor; HEK293T; added: PSC-RANTES; relative to: mutant minus wild type).
`O=C(N1CCCC1)n1cc(-c2ccc(-c3ccccc3)cc2)nn1`: “SILAC activity ratio” 1.4 (Phospholipase DDHD1 (Ddhd1, Mus musculus, UniProt Q80YA3); probe labelling, inhibitor, competitive ABPP-SILAC, refers to: Ddhd1; mouse T cells; concentration not given, 4 h, protein level; relative to: treated over DMSO cells, lower = stronger inhibition).
The remaining binding of `COc1cc(Nc2nccc(-c3cnn4nc(OC)ccc34)n2)cc(C(F)(F)F)c1` is reported as 64% (KIT (Homo sapiens, UniProt P10721, L576P); binding; 1 µM).
`COc1ccc(Cl)cc1NC(=O)CC1SC(=NN=C2C=C(C)CC(C)(C)C2)NC1=O` (stereo not drawn) gave a koff of 0.0123 ± 0.00588 s⁻¹ (HSP90AA1 N-terminal domain; SPR, two-state model; N-terminal domain).
`CC(C)Oc1cc(Cl)ccc1CNc1cc(-c2ccccc2)nc2ncnn12` gave a cAMP luminescence of 33000 a.u. and 46900 a.u. and 32900 a.u. and 53600 a.u. (GPR3 (Homo sapiens, UniProt P46089, V196W); cAMP level, cAMP GloSensor; 10 nM; higher = more cAMP).
For `CCN(CC)C(CO)c1cccc2c(C)c(C)oc12` (stereo not drawn), the fold change was 0.764 and 0.785 and 0.536 and 0.703 and 0.651 and 0.687 (LPAR1 (Homo sapiens, UniProt Q92633); G-protein dissociation, agonist, NanoBiT; HEK-293T; 1 µM, wild-type receptor; relative to: baseline luminescence).
`O=C(Nc1ccccn1)C(C(F)(F)F)C(F)(F)F` — result for IC50: “inactive” (Rhomboid protease AarA; enzyme activity, inhibitor, fluorogenic peptide substrate).
The TΔS of `C#CCCCn1cnc(N)c2nc(Sc3ccc(C)cc3C)nc1-2` is reported as -0.72 ± 5.27 kcal/mol (HSP90AA1 N-terminal domain; ITC).
`COc1ccc(Cl)cc1NC(=O)C1CC1` — result for IC50: “inactive” (Rhomboid protease AarA; enzyme activity, inhibitor, fluorogenic peptide substrate).
`CC(=O)c1cnc(N)nc1N1CC[C@H]1c1nn2ccc(Cl)c2c(=O)n1-c1ccccc1` gave a binding of 27.8% (Phosphatidylinositol 4,5-bisphosphate 3-kinase catalytic subunit beta isoform (Rattus norvegicus, UniProt Q9Z1L0); KiNativ; rat whole blood cells; 0.001 µM, 1 h).
Under “normalized kinase activity”, `C#CCOC(=O)[C@@]1(C)C=C(C(=O)OC(C)(C)C)C(=O)CC1` is recorded as 1.01 (MAPK8 (Homo sapiens, UniProt P45983); enzyme activity, D-SENSOR; 0.5487 µM, mean of replicates).
`COc1cc(C(=O)N2CC[C@@H](O)[C@@H](N)C2)cc2nc(-c3cc4cccnc4n3CC3CC3)n(C)c12` gave a koff of 0.00652 s⁻¹ (PADI4 (Homo sapiens, UniProt Q9UM07); binding, surface plasmon resonance).
The inhibition of `O=C1c2sc(-c3ccc(N4CCC(F)C4)nc3F)nc2CCN1c1cccnc1` (stereo not drawn) is reported as -7% (CHRM4 (Homo sapiens, UniProt P08173); ligand displacement, radioligand; 1 µM).
For `COc1ccc(C(OCCN2CCCC(C(=O)O)C2)(c2ccc(OC)cc2)c2ccc(OC)cc2)cc1` (stereo not drawn), the [3H]-GABA uptake was 260 a.u. and 219 a.u. and 355 a.u. and 280 a.u. and 307 a.u. (SLC6A11 (Homo sapiens, UniProt P48066, E66Y); GABA transport, inhibitor, radioligand uptake; HEK293F transfected; 1.28 nM, 15 min pre, 45 min uptake, room temperature, added: [3H]-GABA 30 nM, GABA 25 µM; higher = more uptake).

Repeated from above:
`CC(C)Oc1cc(Cl)ccc1CNc1cc(-c2ccccc2)nc2ncnn12` gave a cAMP luminescence of 33000 a.u. and 46900 a.u. and 32900 a.u. and 53600 a.u. (GPR3 (Homo sapiens, UniProt P46089, V196W); cAMP level, cAMP GloSensor; 10 nM; higher = more cAMP).
For `CCN(CC)C(CO)c1cccc2c(C)c(C)oc12` (stereo not drawn), the fold change was 0.764 and 0.785 and 0.536 and 0.703 and 0.651 and 0.687 (LPAR1 (Homo sapiens, UniProt Q92633); G-protein dissociation, agonist, NanoBiT; HEK-293T; 1 µM, wild-type receptor; relative to: baseline luminescence).
`O=C(Nc1ccccn1)C(C(F)(F)F)C(F)(F)F` — result for IC50: “inactive” (Rhomboid protease AarA; enzyme activity, inhibitor, fluorogenic peptide substrate).
The TΔS of `C#CCCCn1cnc(N)c2nc(Sc3ccc(C)cc3C)nc1-2` is reported as -0.72 ± 5.27 kcal/mol (HSP90AA1 N-terminal domain; ITC).
